Published values pooled from the literature.
Each line is one published result; not all experiments were run side by side. Numbers after ± are the reported error.
14-3-3 protein epsilon: 14-3-3 protein epsilon (Homo sapiens, UniProt P62258)
Sequence of UniProt P62258 (whole entry, looked up): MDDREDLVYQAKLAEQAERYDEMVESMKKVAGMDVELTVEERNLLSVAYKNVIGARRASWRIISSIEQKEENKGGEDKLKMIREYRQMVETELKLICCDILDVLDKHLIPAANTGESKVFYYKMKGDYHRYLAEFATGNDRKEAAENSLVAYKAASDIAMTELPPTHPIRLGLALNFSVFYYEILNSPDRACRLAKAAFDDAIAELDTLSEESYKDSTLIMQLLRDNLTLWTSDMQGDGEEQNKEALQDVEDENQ
Sequence of UniProt P41143 (whole entry, unmodified, looked up): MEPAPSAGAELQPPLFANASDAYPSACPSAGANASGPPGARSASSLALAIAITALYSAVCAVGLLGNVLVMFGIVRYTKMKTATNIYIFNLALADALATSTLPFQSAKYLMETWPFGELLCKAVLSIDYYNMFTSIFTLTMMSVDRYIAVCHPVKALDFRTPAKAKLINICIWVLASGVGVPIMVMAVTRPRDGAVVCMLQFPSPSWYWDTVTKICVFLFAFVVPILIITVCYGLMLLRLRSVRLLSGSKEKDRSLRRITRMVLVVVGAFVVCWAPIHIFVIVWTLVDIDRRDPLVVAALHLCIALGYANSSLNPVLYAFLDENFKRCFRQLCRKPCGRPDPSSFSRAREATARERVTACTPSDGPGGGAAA
Sequence of UniProt Q12809 (whole entry, looked up): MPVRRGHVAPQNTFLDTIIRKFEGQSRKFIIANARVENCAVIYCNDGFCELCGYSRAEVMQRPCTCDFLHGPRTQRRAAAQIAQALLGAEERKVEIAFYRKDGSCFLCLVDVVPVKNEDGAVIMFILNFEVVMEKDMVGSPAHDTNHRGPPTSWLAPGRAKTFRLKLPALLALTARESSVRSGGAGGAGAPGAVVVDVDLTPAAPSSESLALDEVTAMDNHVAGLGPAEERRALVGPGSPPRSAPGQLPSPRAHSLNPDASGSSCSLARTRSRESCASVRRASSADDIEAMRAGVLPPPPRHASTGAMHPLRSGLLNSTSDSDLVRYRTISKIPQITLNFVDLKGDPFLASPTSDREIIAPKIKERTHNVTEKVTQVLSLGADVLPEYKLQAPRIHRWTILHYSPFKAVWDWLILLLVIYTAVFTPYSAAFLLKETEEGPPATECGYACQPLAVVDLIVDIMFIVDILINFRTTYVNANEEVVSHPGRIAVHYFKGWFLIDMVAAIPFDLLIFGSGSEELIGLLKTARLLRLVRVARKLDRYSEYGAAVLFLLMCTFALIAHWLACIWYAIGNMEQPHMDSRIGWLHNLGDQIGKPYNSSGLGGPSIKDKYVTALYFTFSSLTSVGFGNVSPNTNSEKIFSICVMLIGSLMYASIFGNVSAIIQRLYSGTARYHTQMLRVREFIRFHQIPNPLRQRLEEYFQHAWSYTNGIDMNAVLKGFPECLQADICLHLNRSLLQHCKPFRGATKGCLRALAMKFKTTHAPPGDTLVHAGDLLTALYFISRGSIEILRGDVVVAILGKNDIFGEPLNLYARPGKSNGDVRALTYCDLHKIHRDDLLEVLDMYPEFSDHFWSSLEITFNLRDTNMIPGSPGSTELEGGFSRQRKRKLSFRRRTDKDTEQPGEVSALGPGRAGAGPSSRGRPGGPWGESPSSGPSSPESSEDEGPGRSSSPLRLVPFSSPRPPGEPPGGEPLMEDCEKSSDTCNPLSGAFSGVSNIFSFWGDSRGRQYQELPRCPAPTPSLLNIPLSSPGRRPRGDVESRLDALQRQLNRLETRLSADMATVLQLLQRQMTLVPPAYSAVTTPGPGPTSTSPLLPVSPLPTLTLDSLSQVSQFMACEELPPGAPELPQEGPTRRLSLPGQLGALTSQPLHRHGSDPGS
Sequence of UniProt Q704Y3 (whole entry, unmodified, looked up): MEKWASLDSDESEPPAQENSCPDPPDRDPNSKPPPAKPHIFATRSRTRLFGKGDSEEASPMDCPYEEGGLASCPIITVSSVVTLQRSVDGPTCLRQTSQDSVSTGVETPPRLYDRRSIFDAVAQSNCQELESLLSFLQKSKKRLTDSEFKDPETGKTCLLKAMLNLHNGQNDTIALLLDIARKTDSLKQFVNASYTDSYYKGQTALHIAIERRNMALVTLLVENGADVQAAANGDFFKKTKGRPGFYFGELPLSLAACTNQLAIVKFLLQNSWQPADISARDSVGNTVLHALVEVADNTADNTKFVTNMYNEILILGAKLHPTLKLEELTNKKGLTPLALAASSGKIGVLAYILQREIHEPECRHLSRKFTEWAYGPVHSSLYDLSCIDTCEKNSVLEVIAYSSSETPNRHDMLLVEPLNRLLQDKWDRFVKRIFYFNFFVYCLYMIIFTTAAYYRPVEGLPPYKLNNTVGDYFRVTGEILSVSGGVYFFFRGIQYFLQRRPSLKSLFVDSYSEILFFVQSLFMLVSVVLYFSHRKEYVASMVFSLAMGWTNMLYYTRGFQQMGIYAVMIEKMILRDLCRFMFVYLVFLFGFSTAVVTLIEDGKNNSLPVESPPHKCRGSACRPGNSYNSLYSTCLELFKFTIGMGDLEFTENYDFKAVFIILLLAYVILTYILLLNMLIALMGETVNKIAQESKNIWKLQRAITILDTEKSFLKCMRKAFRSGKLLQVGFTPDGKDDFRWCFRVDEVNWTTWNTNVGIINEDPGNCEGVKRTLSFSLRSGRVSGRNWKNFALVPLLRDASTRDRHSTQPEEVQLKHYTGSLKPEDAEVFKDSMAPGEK
Sequence of UniProt P50391 (whole entry, looked up): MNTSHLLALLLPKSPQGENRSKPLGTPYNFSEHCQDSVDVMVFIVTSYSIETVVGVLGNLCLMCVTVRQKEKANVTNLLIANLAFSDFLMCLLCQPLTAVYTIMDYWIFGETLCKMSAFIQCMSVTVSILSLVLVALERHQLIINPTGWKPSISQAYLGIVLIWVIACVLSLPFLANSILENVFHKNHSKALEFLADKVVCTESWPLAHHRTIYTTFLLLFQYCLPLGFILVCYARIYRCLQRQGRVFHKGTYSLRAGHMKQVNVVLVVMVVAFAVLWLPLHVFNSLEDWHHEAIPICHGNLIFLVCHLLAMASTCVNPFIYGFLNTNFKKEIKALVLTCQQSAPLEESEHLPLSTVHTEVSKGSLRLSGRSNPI
Sequence of UniProt P18825 (whole entry, looked up): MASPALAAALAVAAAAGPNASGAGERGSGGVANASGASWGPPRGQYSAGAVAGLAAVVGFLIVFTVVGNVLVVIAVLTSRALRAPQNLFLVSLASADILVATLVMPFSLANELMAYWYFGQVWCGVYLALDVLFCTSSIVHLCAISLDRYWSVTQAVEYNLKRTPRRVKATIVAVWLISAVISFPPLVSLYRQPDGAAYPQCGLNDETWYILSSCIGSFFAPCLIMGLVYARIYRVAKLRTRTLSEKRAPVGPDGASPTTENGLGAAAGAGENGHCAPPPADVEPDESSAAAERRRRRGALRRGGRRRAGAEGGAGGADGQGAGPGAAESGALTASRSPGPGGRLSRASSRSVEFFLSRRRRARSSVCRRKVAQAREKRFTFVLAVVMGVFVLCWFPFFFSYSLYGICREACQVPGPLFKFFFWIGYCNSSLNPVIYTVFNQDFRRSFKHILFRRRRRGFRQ
Sequence of UniProt Q99895 (whole entry, unmodified, looked up): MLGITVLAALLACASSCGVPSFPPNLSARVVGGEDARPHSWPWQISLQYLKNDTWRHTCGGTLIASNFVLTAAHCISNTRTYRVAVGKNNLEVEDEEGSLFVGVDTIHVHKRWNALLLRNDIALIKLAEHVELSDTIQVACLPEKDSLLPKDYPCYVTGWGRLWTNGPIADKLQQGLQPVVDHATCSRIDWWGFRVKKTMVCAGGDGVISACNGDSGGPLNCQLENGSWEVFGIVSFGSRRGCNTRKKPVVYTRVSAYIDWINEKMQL
Sequence of UniProt P42680 (whole entry, looked up): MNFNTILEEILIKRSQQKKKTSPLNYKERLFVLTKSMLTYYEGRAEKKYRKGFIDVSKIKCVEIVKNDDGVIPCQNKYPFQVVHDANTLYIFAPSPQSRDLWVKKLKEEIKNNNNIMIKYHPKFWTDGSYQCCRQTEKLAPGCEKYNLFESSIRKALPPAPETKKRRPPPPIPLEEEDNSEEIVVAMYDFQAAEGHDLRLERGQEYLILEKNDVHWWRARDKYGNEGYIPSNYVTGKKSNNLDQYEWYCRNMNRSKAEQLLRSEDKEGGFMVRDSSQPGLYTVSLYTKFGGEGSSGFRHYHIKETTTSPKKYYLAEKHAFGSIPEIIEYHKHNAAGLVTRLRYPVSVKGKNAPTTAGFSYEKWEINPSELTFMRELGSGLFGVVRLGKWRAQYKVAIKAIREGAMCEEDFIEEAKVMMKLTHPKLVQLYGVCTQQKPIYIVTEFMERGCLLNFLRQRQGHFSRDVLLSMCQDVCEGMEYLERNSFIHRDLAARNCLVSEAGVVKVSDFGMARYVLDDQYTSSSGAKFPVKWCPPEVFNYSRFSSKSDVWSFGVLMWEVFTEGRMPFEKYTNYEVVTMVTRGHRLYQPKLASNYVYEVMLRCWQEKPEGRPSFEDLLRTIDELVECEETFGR
Sequence of UniProt Q9UKP6 (whole entry, unmodified, looked up): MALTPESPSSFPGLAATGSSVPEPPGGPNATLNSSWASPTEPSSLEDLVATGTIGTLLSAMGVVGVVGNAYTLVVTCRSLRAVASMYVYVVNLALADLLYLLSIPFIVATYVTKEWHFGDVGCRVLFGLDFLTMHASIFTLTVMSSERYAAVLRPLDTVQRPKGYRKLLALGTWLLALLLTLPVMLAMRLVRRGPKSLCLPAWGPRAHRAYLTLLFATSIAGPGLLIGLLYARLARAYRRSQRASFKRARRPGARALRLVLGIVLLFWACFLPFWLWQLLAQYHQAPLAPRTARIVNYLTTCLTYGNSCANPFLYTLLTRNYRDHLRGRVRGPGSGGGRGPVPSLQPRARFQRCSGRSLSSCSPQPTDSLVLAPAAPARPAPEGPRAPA

| Compound | tested on | test | test system | conditions | endpoint | value |
| --- | --- | --- | --- | --- | --- | --- |
| CC(=O)N[C@@H](CCCNC(=N)N)C(=O)N[C@H](C(=O)N[C@@H](CCCCN)C(=O)N[C@@H](CO)C(=O)N[C@@H](CCCNC(=N)N)C(=O)N[C@H](C(=O)N[C@@H](Cc1c[nH]c2ccccc12)C(=O)N[C@@H](C)C(=O)N[C@@H](Cc1ccccc1)C(N)=O)[C@@H](C)OP(=O)(O)O)[C@@H](C)O | 14-3-3 protein epsilon | surface plasmon resonance | – | 298 K | binding free energy | -10.42 ± 0.02 kcal/mol |
| CC[C@H](C)[C@H](NC(=O)[C@H](CO)NC(=S)Nc1ccc2c(c1)C(=O)OC21c2ccc(O)cc2Oc2cc(O)ccc21)C(=O)N[C@@H](CCC(=O)O)C(=O)N[C@@H](CCCCN)C(=O)NCC(=O)NCC(=O)N[C@@H](CCP(=O)(O)O)C(=O)N[C@@H](CC(C)C)C(=O)N1CCC[C@H]1C(=O)N[C@@H](CCCCN)C(=O)N[C@H](C(=O)N[C@@H](Cc1c[nH]c2ccccc12)C(=O)N[C@@H](CC(C)C)C(=O)N[C@H](C(=O)N1CCC[C@H]1C(=O)N[C@@H](CCCNC(=N)N)C(=O)O)C(C)C)C(C)C | 14-3-3 protein epsilon | binding, fluorescence anisotropy | – | pH 7.5, FITC-labelled phosphopeptide titration | Kd | 107000 nM |
| CC(=O)N[C@@H](CCCNC(=N)N)C(=O)N[C@@H](Cc1ccc(O)cc1)C(=O)N[C@@H](CCCNC(=N)NC(=O)NCCCCN)C(=O)N[C@@H](CC(C)C)C(=O)N[C@@H](CCCNC(=N)N)C(=O)N[C@H](Cc1ccc(O)cc1)C(N)=O | NPY4R (Homo sapiens, UniProt P50391) | β-arrestin-2 recruitment, antagonist | HEK293T-ARRB2 | with: 3 nM human pancreatic polypeptide | Kb | 533 ± 120 nM |
| CSCC[C@@H]1NC(=O)[C@H](CC(C)C)NC(=O)[C@H]([C@@H](C)O)NC(=O)[C@@H]2CSSC[C@@H]3NC(=O)[C@H]([C@@H](C)O)NC(=O)[C@H](CC(N)=O)NC(=O)[C@H](CSSC[C@@H](C(=O)N[C@@H](CC(=O)O)C(=O)N[C@@H](CCC(N)=O)C(=O)O)NC(=O)[C@H](CC(C)C)NC1=O)NC(=O)[C@H](CCCCN)NC(=O)[C@H](CC(=O)O)NC(=O)[C@H](CCCCN)NC(=O)[C@H](Cc1ccccc1)NC(=O)[C@H]([C@@H](C)O)NC(=O)[C@H]([C@@H](C)O)NC(=O)CNC(=O)[C@@H]1CCCN1C(=O)[C@H](CCC(=O)O)NC(=O)[C@@H](NC(=O)[C@@H](NC(=O)[C@@H](NC(=O)[C@H](CCC(=O)O)NC(=O)[C@H](CO)NC(=O)CN)C(C)C)[C@@H](C)O)CSSC[C@H](NC(=O)[C@H](CCCNC(=N)N)NC3=O)C(=O)NCC(=O)N[C@@H](CO)C(=O)N[C@@H](CC(=O)O)C(=O)NCC(=O)N[C@@H](CCCCN)C(=O)N[C@@H](CO)C(=O)N[C@@H](C)C(=O)N[C@@H](C)C(=O)N2 | Chymotrypsin-C (Homo sapiens, UniProt Q99895, S216A) | binding, competitive fluorescence polarisation | – | 24 h, pH 8.0, with: FITC-labelled tracer | Kd | 0.12 ± 0.01 nM |
| CC(C)C[C@@H]1NC(=O)[C@H](CC(C)C)NC(=O)[C@H](CC(N)=O)NC(=O)[C@@H]2CCCN2C(=O)[C@H](CC(C)C)NC(=O)[C@H](CC(C)C)NC(=O)[C@H](CC(C)C)NC(=O)[C@@H](NC(=O)[C@H](CO)NC(=O)[C@H](CC(N)=O)NC(=O)[C@@H](N)C(C)C)CSSC[C@@H](C(=O)NCC(=O)N[C@@H](CC(=O)O)C(=O)N[C@@H](CC(=O)O)C(=O)N[C@@H](CCCCNC(=O)CCCC[C@@H]2SC[C@@H]3NC(=O)N[C@@H]32)C(=O)NCCCCCC(=O)NCCCCCC(=O)NCCCCCC(=O)NCCCCCC(=O)NCCCCCC(=O)N[C@@H](CCCCNC(=O)CCCCc2cn(CCCC[C@H](NC(=O)N[C@@H](CCC(=O)O)C(=O)O)C(=O)O)nn2)C(=O)NCC(N)=O)NC(=O)CNC1=O | FOLH1 (Homo sapiens, UniProt Q04609) | bead phagocytosis, ternary complex model fit | – | with: PSMA 80 pM, FcγRI 800 pM | Kd | 150 nM |
| CSCC[C@H](NC(=O)CNC(=O)[C@H](CCCNC(=N)N)NC(=O)[C@H](C)NC(=O)[C@@H](NC(=O)[C@H](CCC(N)=O)NC(=O)[C@H](Cc1ccc(OP(=O)(O)O)cc1)NC(=O)[C@H](C)NC(=O)[C@H](CS)NC(=O)[C@H](CO)NC(=O)[C@@H](NC(=O)[C@H](CC(C)C)NC(=O)[C@H](CC(=O)O)NC(=O)[C@H](CCCCN)NC(=O)[C@H](CO)NC(=O)[C@H](CO)NC(=O)c1ccc2c(c1)C(=O)OC21c2ccc(N(C)C)cc2Oc2cc(N(C)C)ccc21)C(C)C)C(C)C)C(=O)N[C@@H](CCC(=O)O)C(=O)N[C@@H](CC(=O)O)C(=O)O | Tyrosine-protein kinase Tec, SH2 domain (TEC, Homo sapiens, UniProt P42680) | binding | – | – | Kd | 354 nM |
| Cc1ccc(N2CC3CC(C2)N3C)cc1C(=O)NC1(c2ccc3c4c(cccc24)C(=O)N3C)CC1 | KCNH2 (Homo sapiens, UniProt Q12809) | enzyme activity, inhibitor | – | – | IC50 | 3900 nM |
| CCCCC/C=C\C/C=C\C/C=C\C/C=C\CCCC(=O)NCCc1ccc(O)c(O)c1 | Trpv1 (Mus musculus, UniProt Q704Y3, Y512F) | ion current, agonist, whole-cell patch clamp | – | 24 °C, Y512F, +80 mV | EC50 | 60 ± 10 nM |
| CC(=O)N[C@@H](CCCNC(=N)N)C(=O)N[C@H](C(=O)N[C@@H](CCCCN)C(=O)N[C@@H](CO)C(=O)N[C@@H](CCCNC(=N)N)C(=O)N[C@H](C(=O)N[C@@H](Cc1c[nH]c2ccccc12)C(=O)N[C@@H](C)C(=O)N[C@@H](Cc1ccc(O)cc1)C(N)=O)[C@@H](C)OP(=O)(O)O)[C@@H](C)O | 14-3-3 protein epsilon | surface plasmon resonance | – | 298 K | binding free energy | -9.58 ± 0.029 kcal/mol |
| COC1C2(O)C(=O)N3C=CC(C)(C)c4[nH]c5ccccc5c4C=C3C(=O)N2C23C(C)C(C)(C)N2c2ccccc2C13O (centres unmarked) | uncharacterized protein (Ixodes scapularis, UniProt A0A0N9E2I2) | ion current, positive allosteric modulator | – | 1 min pre-application, with: L-glutamate 100 µM | EC50 | 1120 nM |
| COc1cc2c(cc1O)C(CCc1ccc(Cl)cc1)N(C)CC2 (centres unmarked) | ADRA2C (Homo sapiens, UniProt P18825) | cell-free assay, radioligand | – | – | Ki | 140 nM |
| CC(=O)N[C@@H](CCCNC(=N)N)C(=O)N[C@H](C(=O)N[C@@H](CCCCN)C(=O)N[C@@H](CO)C(=O)N[C@@H](CCCNC(=N)N)C(=O)N[C@H](C(=O)N[C@@H](Cc1c[nH]c2ccccc12)C(=O)N[C@@H](C)C(=O)N[C@@H](Cc1c[nH]c2ccccc12)C(N)=O)[C@@H](C)OP(=O)(O)O)[C@@H](C)O | 14-3-3 protein epsilon | surface plasmon resonance | – | 298 K | binding free energy | -9.71 ± 0.1 kcal/mol |
| Cc1ccc(C)c(OCCn2cc(C(=O)O)c3ccccc32)c1 | Ras-related protein Rab-7a (Canis lupus familiaris, UniProt P18067) | – | – | – | EC50 | 77.6 nM |
| O=C1NC2(CC2)COc2ncc(F)cc2[C@H]2COCCN2c2ccn3ncc1c3n2 | – | – | Sprague-Dawley rat, female, liver | oral, 10 mg/kg/day, 4 weeks dosing, end of recovery | organ-to-body weight ratio | 2.94 ± 0.174% |
| O=C(N[C@@H]1c2ccccc2C[C@H]1N1CCCC1)c1ccc(-c2ccnc3[nH]ccc23)nc1 | ROCK2 (Homo sapiens, UniProt O75116) | binding, competition with immobilised ligand | – | – | Kd | 5 nM |
| Cc1cc(O)cc(C)c1C[C@H](N)C(=O)N[C@H](CCCNC(=N)N)C(=O)N[C@@H](Cc1ccccc1)C(=O)N(C)CC(=O)N(C)Cc1cc(C(F)(F)F)cc(C(F)(F)F)c1 | OPRD1 (Homo sapiens, UniProt P41143, I304A) | – | – | – | Ki | 9.48 ± 2.17 nM |
| CC(C)[C@H](NC(=O)[C@@H]1CSSC(C)(C)[C@H](NC(=O)[C@@H](N)CC(=O)O)C(=O)N[C@@H](Cc2ccccc2)C(=O)N[C@@H](Cc2c[nH]c3ccccc23)C(=O)N[C@@H](CCCCN)C(=O)N[C@@H](Cc2ccc(O)cc2)C(=O)N1)C(=O)O | UTS2R (Homo sapiens, UniProt Q9UKP6, T301A) | IP1 accumulation, agonist, HTRF | HEK293T | 1 h, 37 °C, T301A mutant, 7.39 | EC50 | 0.631 nM |

Repeated from above:
| Compound | tested on | test | test system | conditions | endpoint | value |
| --- | --- | --- | --- | --- | --- | --- |
| O=C1NC2(CC2)COc2ncc(F)cc2[C@H]2COCCN2c2ccn3ncc1c3n2 | – | – | Sprague-Dawley rat, female, liver | oral, 10 mg/kg/day, 4 weeks dosing, end of recovery | organ-to-body weight ratio | 2.94 ± 0.174% |
| O=C(N[C@@H]1c2ccccc2C[C@H]1N1CCCC1)c1ccc(-c2ccnc3[nH]ccc23)nc1 | ROCK2 (Homo sapiens, UniProt O75116) | binding, competition with immobilised ligand | – | – | Kd | 5 nM |
